Published values collected from several papers.
Parts stem from different laboratories: compare values within a part only. Changes are numbered by the printed parent chain.

Block 1 — method: DHFR PCA, deep sequencing; sample: yeast; added: (+)-ABA 0.032 µM; baseline: wild-type fitted maximum; direction: higher = stronger binding
Target: ABI1, truncated, D143A, DHFR fusion (Arabidopsis thaliana)
Notes: methotrexate growth selection, single substitutions
Starting sequence: PYL1, truncated, DHFR fusion (Arabidopsis thaliana); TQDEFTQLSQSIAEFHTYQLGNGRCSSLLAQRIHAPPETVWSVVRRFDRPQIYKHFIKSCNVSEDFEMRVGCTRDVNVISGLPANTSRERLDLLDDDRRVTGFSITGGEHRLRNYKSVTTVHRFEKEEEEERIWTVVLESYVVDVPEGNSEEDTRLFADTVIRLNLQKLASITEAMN; partner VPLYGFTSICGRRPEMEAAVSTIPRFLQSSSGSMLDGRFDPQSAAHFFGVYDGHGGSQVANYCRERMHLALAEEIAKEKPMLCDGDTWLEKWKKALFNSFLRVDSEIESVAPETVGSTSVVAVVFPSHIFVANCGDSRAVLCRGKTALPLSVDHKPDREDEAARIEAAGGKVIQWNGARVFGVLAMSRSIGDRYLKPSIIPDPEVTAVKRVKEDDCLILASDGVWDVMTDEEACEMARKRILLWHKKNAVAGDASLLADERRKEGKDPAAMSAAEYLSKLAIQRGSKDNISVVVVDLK
Change	relative binding score [%]
L138S	6.8
V118T	24.9
E129Y	14.8
K54N	-3.77
Q7W	20.8
Q7T	21.4
I172V	45.1
D48S	-5.06
L8W	8.56
I105C	2.58
E125L	17.3
Y115H	8.13
T119L	8.95
E127L	32.4

Block 2 — method: RNA Bind-n-Seq; molecule type: RNA; sample: in vitro; concentration: 365 nM; baseline: no-protein control; direction: higher = stronger binding
Target: RNA binding protein fox-1 homolog 2, RRM domain, GST-SBP tag (RBFOX2, Homo sapiens, UniProt O43251-10, residues 100-194)
Notes: natural RNA segment, single round, ends assumed
All sequences stand within: GGGAGUUCUACAGUCCGACGAUC … UGGAAUUCUCGGGUGCCAA
Target sequence (chain): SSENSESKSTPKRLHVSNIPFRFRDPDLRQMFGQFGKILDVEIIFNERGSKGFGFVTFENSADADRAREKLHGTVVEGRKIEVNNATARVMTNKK
Sequence	RBNS enrichment (R)
GGCCACUGUGAUCUUGGCAGCCCUCCUGUUUAAGGGGCUGCCACCCUCCCUUACAGGGUGGUGUAUAGCCAGGGCUAUACAAAAAGGGUGGCUAGUGACCUUUUCUCUCU	0.253
AGAAGCUGAAGUCUACGCUCCUCCCAAUCUUUGGUCCCAGUGCCGCUGUUCGCCUUCCUGCUGGUUGAUUGCAGAACCACCUCUGAGACCUCUGUACCUGCUCUUGGAAU	0.458
AGUCUUAUUUUAUAGUUUGAAAAGCACUUUGCACACAGUUCUUGUAUAUAAAAGUAAAGAUGUAAUUAUAGGAUAUAGUGUUCCUGCUUUGUUUAAUAAGAACCUCAUUU	6.92
GAGAGAGAGCAGAGAGCGCCUCCUAUUCUACCGCGGCUGCCUCUGCCCCCACAGCACCCACAGAUCCCUGGCCCUUCCAGGAGUAAGUCCUGGGCAGGCAGAGCUGGGGU	0.26
GCUUCUUUAGGUCAAAGAAAUCAAUUGCUUUCCAUAGAGCUGAUACUGUGAACAUUCGAAUGCAUCUGUGGCCUUCGCCUCCCCAGCUGCCCUGUCCCUCCUUGGAAACA	0.254
GGUGAGAGUAAUGAGGCUUGGGGCUGGAGAGGACAAGAUGGGUAAACCCUCACAUCAGAGUGACAUCCAGGAGGAAUAAGCUCCCAGGGCCUGUCUCAAGCUCUUCCUUA	0.495
GUCCACCCUCCUCUGGAUAUUGGGGAGGGACGGAAGUGACAGGGUGUGGUGGUGGAGUGGGGAGCUGGCUUCUGCUGGCCAGGAUAGCUUAACCCUGACUUUGGGAUCUG	0.398
ACGGGCCGGGCAGUGGUGAGGUCACUGUGAAUGGAGGUUUGUUUCCCAUGAGAUCGGACACUGUCCGCAGUCCGAUAUGCCACCAGUGAGCUAGAGCAAUCCAGGAGACU	1.24
GAGGUGCCAUCUCUACCUCUGACACAGCCUGUCUGCCUUGAGACUGAGGAAGGCACAGGCAAGCAAGGAGCCAUGAACCACAGGGCCCCAGCCAGCACAGGAUUUGUCCU	0.422
UUAGCCGACCACGAGGAACCUUGUUUCGAAUUAGAGGCAGAGGAAGAGCCAGAGGAGUUUUUGCUGGGACAAAUACUGGUCCAAACAACUCAAAUACUACUUUUCAAAAG	0.308
AUUUUAAGUUUGCCUUAUCAGAUAUCUGAGCUGUGCGACAAGUAAGUAGCUCUGGGGCCAUGUCUUGACUGGCUCCUAAUGGUGACUCCAGGCCAGCACUUGGUCAUUUG	0.263
AAACUAUCAUUAUAAAUUGAAGUGUAUAUGCUCAGUAUAUUGGCAUAUAUGUGUAAUUCCAGCACUGGGAGGAGGACAAAGGGCAAUCAGGAGUUCAAGGCCAGCCUUAG	0.367

Block 3 — method: RNA Bind-n-Seq; molecule type: RNA; sample: in vitro; concentration: not given; baseline: input RNA pool; direction: higher = stronger binding
Target: RING finger protein unkempt homolog, zinc fingers 1-6, GST-SBP tag (UNK, Homo sapiens, UniProt Q9C0B0, residues 30-357)
Notes: RNA with constant flanks, human and mouse sites, ends assumed
All sequences stand within: GGGAGUUCUACAGUCCGACGAUC … CAACAGAGGAUUGAGCAUCA
Construct (chain): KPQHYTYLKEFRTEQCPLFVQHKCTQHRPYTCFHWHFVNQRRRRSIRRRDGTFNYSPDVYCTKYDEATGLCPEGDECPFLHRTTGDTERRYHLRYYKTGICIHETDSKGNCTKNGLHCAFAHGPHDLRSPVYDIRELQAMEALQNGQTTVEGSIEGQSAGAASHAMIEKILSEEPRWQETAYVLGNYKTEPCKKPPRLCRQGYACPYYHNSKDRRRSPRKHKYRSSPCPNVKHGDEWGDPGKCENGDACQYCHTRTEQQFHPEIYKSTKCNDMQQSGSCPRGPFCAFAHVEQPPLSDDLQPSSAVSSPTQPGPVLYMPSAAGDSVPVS
Sequence	bound/input enrichment [ratio]
UCUCAAGCAUCUUCAAAGAUACUGAAGUACUCUUUCCCAGUGGGACUAAGAACCAGCAGAACAGAUAUACUUUCUCUCAAGAUGUCUCUCCAGCAAAACUUUUCCCCAUGUCCAAGGCCU	0.204
AUCUCUUGCGGCUGAAAGUGGACAUCUUAUUAGACAUGCUUUCAGAGUCCACUGCUGAAUCCCACUUAAUGGAGAAGGAACUGGAUGAACUGAGGAUCAGCCGGAAGAGAAAAUGAAGAC	0.478
UCCUCAUCCAGCAGCACCGACUGGGACCUGGAUUUUGGGAGUCCUGUGGGGAACCAGGGGCAGCAUCCUGGAAAAGGAAGCCCACCAGGAAGCUCCCCACUGCAGGGUCUGGAGAAUUGU	0.067
UGUCCUUGACUCUUGGGUCUGUGGGCCAUGGCAUGAGUGUUUUCUAGUAGUAGAUUGGAGGGAAAGCUUUGUGACACUUAGUACUGUGUUUUUAAGAAGAAAUAAUUUGGUUCCAGAUGU	1.28
GCCAUGUGAGGGGGCUCGGGGGCCGCGGGGGGCCGGGCGCUCCCCGCCGGAGAUGAGGAAACUGAGGCUCAGAGAGGUCACAUGGCUUGCUCGAGGCCCCCCAGCCAGUGUGAACCCACA	0.0728
ACUAUCUGAAGAUUUCCAUUUGUCAAAAAGUAAUGAUUUCUUGAUAAUUGUGUAGUAAUGUUUUUUAGAACCCAGCAGUUACCUUAAAGCUGAAUUUAUAUUUAGUAACUUCUGUGUUAA	2.58
UGUGGUGGAGAAGGUAUCUCAUUCCUCUCCAACAUCAUCUCCACUUUGCAUCUGUCUCUCUUAGUCUGCUUUUUUUCCACCGAUGUAACAGACCUGCAGCCAGCAAGACUCCGAGGGAAG	0.179
AAAAUAGACUAUGGUGAAUACAUGGAUAAAAAUAAUGUGAGGCGACAAGCAACAACAAUCAUAGCUGAUAAUAUUAUAUUUCUGAGUGACCAGACGAAAGAGAAGGAGUAGAAAGGAUGA	4.51

Block 4 — target: CCND2, cyclin fold, Cln2 fusion (human); method: yeast growth competition, sequencing; sample: yeast; notes: weak parent motif; baseline: not given; direction: higher = stronger binding
Starting sequence: ORC1 docking peptide (human); PRARKRLELGNLG
Change	normalised enrichment score
PRARVRLELGNLG [K5V]	-0.112
PRARKRLEGGNLG [L9G]	0.0899
PRARKRLELNNLG [G10N]	-0.19
PRARKELELGNLG [R6E]	-0.179
PRARGRLELGNLG [K5G]	0.16
PRARKRLELGNKG [L12K]	-0.0426
PRARKRLELPNLG [G10P]	-0.0787
PRARKRPELGNLG [L7P]	-0.303
PRARKRLELGNNG [L12N]	0.336
PRARKRLEIGNLG [L9I]	0.25
PRARKRLEPGNLG [L9P]	-0.323
PRARKRLELGNWG [L12W]	0.402
PRARKRLELGNLL [G13L]	0.0346
PRARKRVELGNLG [L7V]	-0.314
PRAWKRLELGNLG [R4W]	0.201
PMARKRLELGNLG [R2M]	0.245
PRGRKRLELGNLG [A3G]	-0.0824
PRARKRLEKGNLG [L9K]	0.282
PRARKRLEVGNLG [L9V]	0.353
PQARKRLELGNLG [R2Q]	0.00544

Block 5 — method: aptamer microarray, sandwich; molecule type: DNA with 2'F-ANA; sample: in vitro; concentration: 200 nM; added: Cy3 exosite-II aptamer, 400 nM; direction: higher = stronger binding; sequence: GGTTGGTGTGGTTGG
Target: Prothrombin, mature alpha-thrombin (F2, Homo sapiens, UniProt P00734)
Notes: whole 15-mer aptamer, many near background
Modification	mean fluorescence intensity
2'F-ANA at 1 4 5 7 13 15	48.2 a.u.
2'F-ANA at 2 4 5 9 10 11 12 13 15	48 a.u.
2'F-ANA at 4 8 9 10 11 15	74.1 a.u.
2'F-ANA at 4 5 6 8 10 11 12 14	53.6 a.u.
2'F-ANA at 7 13 14 15	213 a.u.
2'F-ANA at 1 4 5 7 9	163 a.u.
2'F-ANA at 1 3 6 7 8 12 13 15	445 a.u.
2'F-ANA at 2 3 4 5 6 8 12 13 14 15	51.5 a.u.
2'F-ANA at 1 3 5 7 8 9 10	68.7 a.u.
2'F-ANA at 1 2 3 5 6 7 8	62.5 a.u.
2'F-ANA at 1 3 4 5 9 11 13 14 15	50 a.u.
2'F-ANA at 1 3 5 6 8 9 10 11 12 15	50.3 a.u.
2'F-ANA at 1 2 3 4 5 7 11 13 15	53.6 a.u.
2'F-ANA at 3 5 10 11 13	126 a.u.
2'F-ANA at 2 5 8 11 12 13	140 a.u.
2'F-ANA at 5 6 7 10 11 14 15	49.4 a.u.

A few entries again (block 2):
Sequence	RBNS enrichment (R)
AGUCUUAUUUUAUAGUUUGAAAAGCACUUUGCACACAGUUCUUGUAUAUAAAAGUAAAGAUGUAAUUAUAGGAUAUAGUGUUCCUGCUUUGUUUAAUAAGAACCUCAUUU	6.92
GAGAGAGAGCAGAGAGCGCCUCCUAUUCUACCGCGGCUGCCUCUGCCCCCACAGCACCCACAGAUCCCUGGCCCUUCCAGGAGUAAGUCCUGGGCAGGCAGAGCUGGGGU	0.26
AUUUUAAGUUUGCCUUAUCAGAUAUCUGAGCUGUGCGACAAGUAAGUAGCUCUGGGGCCAUGUCUUGACUGGCUCCUAAUGGUGACUCCAGGCCAGCACUUGGUCAUUUG	0.263
ACGGGCCGGGCAGUGGUGAGGUCACUGUGAAUGGAGGUUUGUUUCCCAUGAGAUCGGACACUGUCCGCAGUCCGAUAUGCCACCAGUGAGCUAGAGCAAUCCAGGAGACU	1.24
AGAAGCUGAAGUCUACGCUCCUCCCAAUCUUUGGUCCCAGUGCCGCUGUUCGCCUUCCUGCUGGUUGAUUGCAGAACCACCUCUGAGACCUCUGUACCUGCUCUUGGAAU	0.458
UUAGCCGACCACGAGGAACCUUGUUUCGAAUUAGAGGCAGAGGAAGAGCCAGAGGAGUUUUUGCUGGGACAAAUACUGGUCCAAACAACUCAAAUACUACUUUUCAAAAG	0.308
GAGGUGCCAUCUCUACCUCUGACACAGCCUGUCUGCCUUGAGACUGAGGAAGGCACAGGCAAGCAAGGAGCCAUGAACCACAGGGCCCCAGCCAGCACAGGAUUUGUCCU	0.422
GCUUCUUUAGGUCAAAGAAAUCAAUUGCUUUCCAUAGAGCUGAUACUGUGAACAUUCGAAUGCAUCUGUGGCCUUCGCCUCCCCAGCUGCCCUGUCCCUCCUUGGAAACA	0.254
GUCCACCCUCCUCUGGAUAUUGGGGAGGGACGGAAGUGACAGGGUGUGGUGGUGGAGUGGGGAGCUGGCUUCUGCUGGCCAGGAUAGCUUAACCCUGACUUUGGGAUCUG	0.398
GGUGAGAGUAAUGAGGCUUGGGGCUGGAGAGGACAAGAUGGGUAAACCCUCACAUCAGAGUGACAUCCAGGAGGAAUAAGCUCCCAGGGCCUGUCUCAAGCUCUUCCUUA	0.495
